Experimental data from different studies.
Compare with care: the assays were run in different laboratories. Numbers after ± are the reported error.

SMILES	test	test system	conditions	measurement	value
C[C@@H](Oc1ccc(S(C)(=O)=O)cc1C(=O)N1C[C@@H]2C[C@]2(c2cc(C(F)(F)F)on2)C1)C(F)(F)F		young healthy humans, plasma	oral, 10 mg once daily, multiple dosing	apparent clearance at steady state	84.1 mL/min
O=C(Nc1nc2cccc(-c3ccc(CN4CCS(=O)(=O)CC4)cc3)n2n1)C1CC1	population PK bootstrap median	human	oral, dose not given	apparent peripheral volume	35.1 L
Cc1cc(C)c(CNC(=O)c2cc(Cl)c3c(c2C)O[C@@](C)([C@H]2CC[C@H](N(C)C)CC2)O3)c(=O)[nH]1	population PK model	human	oral, dose not given	apparent peripheral volume V3/F	2950 L
CCCCC1=NC2(CCCC2)C(=O)N1Cc1ccc(-c2ccccc2S(=O)(=O)Nc2noc(C)c2C)c(COCC)c1		healthy adult human volunteers	oral, 400 mg single dose	apparent clearance (CL/F)	~5 L/h
Nc1nc2cccc(-c3ccc(CN4CCS(=O)(=O)CC4)cc3)n2n1	population PK bootstrap median	human	dose not given	apparent central volume	81.3 L
COc1ccc(-n2nc(C(N)=O)c3c2C(=O)N(c2ccc(N4CCCCC4=O)cc2)CC3)cc1		human, plasma	oral, dose not given, Base population PK model	apparent peripheral volume	21.8 ± 1.48 L
NC1(C(=O)N[C@@H](CCO)c2ccc(Cl)cc2)CCN(c2nc[nH]c3nccc2-3)CC1	population PK model	human	dose not given	apparent steady-state volume of distribution	265 L
C=CC(=O)Nc1cc(Nc2ncc(C(=O)OC(C)C)c(-c3cn(C)c4ccccc34)n2)c(OC)cc1N(C)CCN(C)C		healthy human volunteers	oral, dose not given, capsule C vs capsules A and B	apparent peripheral volume	1120 L
Cn1nnc2c(C(N)=O)ncn2c1=O		human patients, plasma	with: talazoparib	apparent clearance CL/F	8.3 ± 5.4 L/h/m2
Cc1nc(Nc2ncc(C(=O)Nc3c(C)cccc3Cl)s2)cc(N2CCN(CCO)CC2)n1		human patients, plasma	65 mg/m^2, day 42	apparent oral clearance	4020 ± 2980 mL/min/m²
CNC(=O)c1ccc(N2C(=S)N(c3ccc(C#N)c(C(F)(F)F)c3)C(=O)C2(C)C)cc1F	population PK base model	human, male	oral	apparent intercompartmental clearance	21.2 L/h
Cn1cc(-c2cn3nccc3c(-c3cnn([C@]4(CC#N)C[C@@H](C#N)C4)c3)n2)cn1		healthy humans fasted, plasma	3 mg single dose, geometric mean	apparent volume Vz/F	312 L
CC[C@@H]1CN(C(=O)NCC(F)(F)F)C[C@@H]1c1cnc2cnc3[nH]ccc3n12	population PK modelling	human	oral, dose not given, final model, outliers re-estimated	apparent peripheral volume (Vp/F)	68.7 L
CCCOc1ccc([C@H]2CNC(=O)N2c2ccc3[nH]cnc3c2)cc1		human volunteers fed, plasma	oral tablet, 200 mg single dose, crossover, geometric mean	apparent terminal half-life	3.6 h
C=CC(=O)N(C)CCOc1c(N)ncnc1-c1cc(F)cc(NC(=O)c2ccc(C3CC3)cc2F)c1C		human, whole blood	oral, 600 mg, single ascending dose	apparent clearance CL/F	564 L/h
C=C[C@@H]1C[C@]1(NC(=O)[C@@H]1C[C@@H](Oc2ncc(OC)c3ccc(Cl)cc23)CN1C(=O)[C@@H](NC(=O)OC(C)(C)C)C(C)(C)C)C(=O)NS(=O)(=O)C1CC1	population PK full model	human	oral, dose not given	apparent volume of distribution	78.2 L

SMILES	test	test system	conditions	measurement	value
CCCCCCCCCCCCCCCC(=O)N[C@@H](CCC(=O)NCCCC[C@@H]1NC(=O)[C@H]([C@@H](C)CC)NC(=O)[C@@H](NC(=O)[C@@H]2CCCN2C(=O)[C@H](Cc2ccccc2)NC(=O)[C@H](Cc2c[nH]cn2)NC(=O)[C@@H](NC(=O)[C@H](CC(=O)O)NC(=O)CC(C)C)[C@@H](C)O)CSSC[C@@H](C(=O)N[C@@H](CCCCN)C(N)=O)NC(=O)CNC(=O)[C@H](CCCCN)NC(=O)[C@H](CO)NC(=O)[C@H](CCCNC(=N)N)NC(=O)[C@@H]2CCCN2C(=O)[C@H](CCC(=O)O)NC(=O)[C@H](Cc2ccccc2)NC1=O)C(=O)O		healthy human, plasma	subcutaneous, 20 mg, single dose, aqueous formulation	apparent clearance CL/F	1.54 ± 0.508 L/h
N[C@@H]1c2cccnc2[C@H](OC(=O)N2CCC(n3c(=O)[nH]c4ncccc43)CC2)CC[C@H]1c1cccc(F)c1F	population PK model	human	oral	apparent clearance CL/F	24.1 L/h
C[C@@]1(c2cc(NC(=O)c3ccc(C#N)cn3)ccc2F)C=CSC(N)=N1		elderly humans, both sexes, plasma	oral, 10 mg single dose, mean	apparent clearance CL/F	10.3 L/h
C[C@H](Cn1cnc2c(N)ncnc21)OCP(=O)(O)O	population PK model	human, plasma	oral, reduced model estimate	apparent clearance	43.2 L/h
Cc1cc(C)c(CNC(=O)c2cc(Cl)c3c(c2C)O[C@@](C)([C@H]2CC[C@H](N(C)C)CC2)O3)c(=O)[nH]1		healthy male human, plasma	oral, 25 mg, alone, before itraconazole	apparent volume of distribution	836 L
Cl.[2H]C([2H])([2H])CC(=O)c1cnc(NC(=O)C2CC2)cc1Nc1cccc(-c2ncn(C([2H])([2H])[2H])n2)c1OC		human, non-fasted	oral, 60 mg once daily, day 14, multiple dose, tablet, geometric mean	apparent clearance	14.7 L/h
NC(=O)N1c2ccccc2CC(=O)c2ccccc21	population PK modelling	human patients, plasma	oral, joint parent-metabolite model	apparent clearance	198 L/h
CNC(=O)c1c(C)oc2cc(Oc3ncnc4cc(OC)c(OC)cc34)ccc12	population PK model	human	70 kg body weight	apparent clearance (CL/F)	0.794 L/h
C=CC(=O)NC1CCN(c2ncc3ncnc(Nc4ccc(Oc5ccc6c(c5)ncn6C)c(C)c4)c3n2)CC1		human	oral, 60 mg single dose, geometric mean, with: carbamazepine	apparent oral clearance	415 mL/min
O=C(O)CCC(=O)O.[2H]C([2H])([2H])Oc1cc(C)c2[nH]ccc2c1CN1CC[C@@H](C2CC2)C[C@H]1c1ccc(C(=O)O)cc1		healthy humans, fed	oral, 200 mg, single dose, high-fat meal	apparent clearance (CL/F)	1.66 L/h
O=C(NO)c1ccc(CN(c2cnccn2)c2cnccn2)cc1		human patients, phase I, plasma	oral, sampling up to 12 h	apparent elimination half-life	1.6 to 4.9 h
NC[C@@]1(CC(=O)O)[C@@H]2CC[C@H]3C[C@@H]2[C@@H]1C3		human, normal renal function, plasma	oral, 20 mg single dose, geometric mean	apparent volume of distribution	56.9 L
COc1cc(C(=O)NC2CCN(C)CC2)c(F)cc1Nc1ncc(C(F)(F)F)c(Oc2cccc3c2C(=O)N(C)C3)n1		human patients, plasma	oral, 50 mg single dose, geometric mean	apparent oral clearance CL/F	266 mL/min
NCC(=O)Nc1cncc(-c2nn3c(=O)cc(N4CCNCC4)nc3s2)c1	population PK model	human	subcutaneous, dose not given, geometric mean	apparent peripheral volume (Vp/F)	392 L
Cc1cc(C)c(CNC(=O)c2cc(Cl)c3c(c2C)O[C@@](C)([C@H]2CC[C@H](N(C)C)CC2)O3)c(=O)[nH]1		human, plasma	oral, 200 mg, cycle 1 day 15, mean	apparent volume of distribution (unbound)	7130 L
